Measured values from different studies.
Compare with care: the assays were run in different laboratories. Several values in a cell are separate wells, animals, samples, runs or records.

Compound	organism	test	system	setting	scale	quantity	result
C[N+](C)(C)CCO.O=C([O-])C(Cl)Cl	Chenopodium album	herbicidal activity	–	15 mg/mL, 21 days, post-emergence greenhouse	–	inhibition	0%
COc1ccc(CNc2nc([C@H]3CC[C@H](C(=O)O)CC3)nc3sc4ccccc4c23)cc1Cl	Cryptosporidium parvum	parasite growth, immunofluorescence imaging	HCT-8, Iowa	18 µM	–	inhibition	91.7% and 93.6%
O=c1[nH]cc(C(c2cccc(C(F)(F)F)c2)c2c[nH]c(=O)[nH]c2=O)c(=O)[nH]1	HIV-1 subtype C	p24 antigen production, p24 ELISA	–	7.8 µg/mL	–	inhibition	< 25%
COc1ccc(CCNC2=CC3=[N+](C)CCc4c[nH]c(c43)C2=O)cc1	Saccharomyces cerevisiae	cell growth, liquid culture	BY4741	100 µM, 24 h	–	inhibition	92.3%
C=C(C)C1CC=C(CN2CCN(Cc3ccccc3)CC2)CC1 (stereo not drawn)	Trypanosoma cruzi	reporter mRNA translation, inhibitor, refers to: Renilla luciferase mRNA	cell-free extract	concentration not given, test 2	relative to: positive over negative control	translation activity	109% and 100%
CCCCNCCO.O=C(O)C(Cl)Cl	Chenopodium album	herbicidal activity	–	15 mg/mL, 21 days, pre-emergence greenhouse	–	inhibition	0%
O=C1C(=O)c2[nH]cc3c2C(=C1Cl)NCC3	Saccharomyces cerevisiae	cell growth, liquid culture	BY4741	100 µM, 24 h	–	inhibition	0%
Cc1ccccc1C(c1c[nH]c(=O)[nH]c1=O)c1c[nH]c(=O)[nH]c1=O	HIV-1 subtype C	p24 antigen production, p24 ELISA	–	125 µg/mL	–	inhibition	48%
CC(O)CNCC(C)O.O=C(O)C(Cl)Cl (stereo not drawn)	Chenopodium album	herbicidal activity	–	15 mg/mL, 21 days, pre-emergence greenhouse	–	inhibition	0%
O=c1[nH]cc(C(c2ccc(Cl)cc2)c2c[nH]c(=O)[nH]c2=O)c(=O)[nH]1	HIV-1 subtype C	p24 antigen production, p24 ELISA	–	1.95 µg/mL	–	inhibition	< 25%
CN(C)CCCSC(=S)N1CCN(C(=O)/C=C/c2coc3ccccc3c2=O)CC1	TMV	virus inactivation	–	500 µg/mL	–	inhibition	79% and 78% and 81%
CN(C)c1ccc(CNCCC2CCOC(C)(C)C2)cc1.Cl (stereo not drawn)	Trypanosoma cruzi	reporter mRNA translation, inhibitor, refers to: Renilla luciferase mRNA	cell-free extract	concentration not given, test 2	relative to: positive over negative control	translation activity	86.6% and 102%

Repeated from above:
Compound	organism	test	system	setting	scale	quantity	result
CN(C)c1ccc(CNCCC2CCOC(C)(C)C2)cc1.Cl (stereo not drawn)	Trypanosoma cruzi	reporter mRNA translation, inhibitor, refers to: Renilla luciferase mRNA	cell-free extract	concentration not given, test 2	relative to: positive over negative control	translation activity	86.6% and 102%
